Assay results collected from several papers.
Compare with care: the assays were run in different laboratories. ± gives the spread as reported.

Nc1ccn([C@@H]2O[C@H](CO)[C@@H](O)C2(F)F)c(=O)n1 — elimination half-life (athymic nude mouse, female, BxPC-3 xenograft, plasma; intravenous, 25 mg/kg): 0.167 h
CCOc1ccc2c(c1)C(C)=CC(C)(C)N2 — residue concentration (LC-MS/MS; piglets, subcutaneous fat; oral, 50 mg/kg feed, 42 days): 8.6 ± 5.9 ng/g
C[C@@H](Oc1ccc(S(C)(=O)=O)cc1C(=O)N1C[C@@H]2C[C@]2(c2cc(C(F)(F)F)on2)C1)C(F)(F)F — AUC(0-167 h) (healthy men, plasma; oral, dose not given, adjusted geometric mean, with: itraconazole): 27.2 µM·h
CC[C@H](C)[C@H](NC(=O)[C@H](Cc1ccccc1)NC(=O)[C@H](CCC(=O)O)NC(=O)[C@H](CCCCNC(=O)COCCOCCNC(=O)COCCOCCNC(=O)CC[C@H](NC(=O)CCCCCCCCCCCCCCCCC(=O)O)C(=O)O)NC(=O)[C@H](C)NC(=O)[C@H](C)NC(=O)[C@H](CCC(N)=O)NC(=O)CNC(=O)[C@H](CCC(=O)O)NC(=O)[C@H](CC(C)C)NC(=O)[C@H](Cc1ccc(O)cc1)NC(=O)[C@H](CO)NC(=O)[C@H](CO)NC(=O)[C@@H](NC(=O)[C@H](CC(=O)O)NC(=O)[C@H](CO)NC(=O)[C@@H](NC(=O)[C@H](Cc1ccccc1)NC(=O)[C@@H](NC(=O)CNC(=O)[C@H](CCC(=O)O)NC(=O)C(C)(C)NC(=O)[C@@H](N)Cc1cnc[nH]1)[C@@H](C)O)[C@@H](C)O)C(C)C)C(=O)N[C@@H](C)C(=O)N[C@@H](Cc1c[nH]c2ccccc12)C(=O)N[C@@H](CC(C)C)C(=O)N[C@H](C(=O)N[C@@H](CCCNC(=N)N)C(=O)NCC(=O)N[C@@H](CCCNC(=N)N)C(=O)NCC(=O)O)C(C)C — dose-corrected accumulation ratio (Caucasian subjects; subcutaneous once weekly, 0.5 mg, geometric mean; relative to: steady state over single dose): 2.3
CO[C@H]1C[C@@H]2CC[C@@H](C)[C@@](O)(O2)C(=O)C(=O)N2CCCC[C@H]2C(=O)O[C@H]([C@H](C)C[C@@H]2CC[C@@H](O)[C@H](OC)C2)CC(=O)[C@H](C)/C=C(\C)[C@@H](O)[C@@H](OC)C(=O)[C@H](C)C[C@H](C)/C=C/C=C/C=C/1C — Cmax (human, whole blood; oral, 25 mg, without grapefruit juice): 84.7 ng/mL
Cc1c2oc3c(C)ccc(C(=O)N[C@@H]4C(=O)N[C@H](C(C)C)C(=O)N5CCC[C@H]5C(=O)N(C)CC(=O)N(C)[C@@H](C(C)C)C(=O)O[C@@H]4C)c3nc-2c(C(=O)N[C@@H]2C(=O)N[C@H](C(C)C)C(=O)N3CCC[C@H]3C(=O)N(C)CC(=O)N(C)[C@@H](C(C)C)C(=O)O[C@@H]2C)c(N)c1=O — AUC(0-6h) (mouse, Abcc2 knockout FVB, plasma; intravenous, 0.5 mg/kg): 115 ng·h/mL
CC(=O)N[C@@H](Cc1ccccc1)C(=O)N[C@H]1CCCNC(=O)[C@H](CCCNC(=N)N)NC(=O)[C@H](Cc2c[nH]c3ccccc23)NC(=O)[C@@H](CC2CCCCC2)NC(=O)[C@@H]2CCCN2C1=O — elimination half-life (C57BL/6J mice, brain; intravenous, 1 mg/kg): 1.93 h
CCCC[C@@H]1NC(=O)[C@@H](NC(=O)[C@H](CCC(=O)O)NC(=O)CNC(=O)CN2CCN(CC(=O)O)CCN(CC(=O)O)CCN(CC(=O)O)CC2)CCCCNC(=O)C[C@@H](C(N)=O)NC(=O)[C@H](C(C)C)NC(=O)[C@@H]2CCCN2C(=O)[C@H](CCCNC(=N)N)NC(=O)CNC(=O)[C@H](Cc2c[nH]c3ccccc23)NC(=O)[C@H](CCCNC(=N)N)NC(=O)[C@@H](Cc2ccccc2)NC(=O)[C@H](Cc2c[nH]cn2)NC(=O)[C@H](CCC(=O)O)NC1=O [indium-111 labelled] — tissue uptake (normal C57 mice, muscle; intravenous, 0.037 MBq, 2 h): 0.03 ± 0.03 %ID/g
CN(C)C(=N)N=C(N)N — EC20 (cytochrome c release, ELISA; BALB/cByJ female mouse liver mitochondria; 30 min; relative to: alamethicin maximal release): > 800 µM
CCCC[C@H](NC(C)=O)C(=O)N[C@H]1CCC(=O)NC[C@@H](C(=O)N[C@@H](Cc2c[nH]c3ccccc23)C(N)=O)NC(=O)[C@H](CCCNC(=N)N)NC(=O)[C@@H](Cc2ccccc2)NC(=O)[C@H](Cc2c[nH]cn2)NC1=O — Tmax (beagle dog, male, plasma; subcutaneous, 8.0 mg/kg daily, day 1): 0.75 h
CS(=O)(=O)n1cc2c(n1)CN([C@H]1CO[C@H](c3cc(F)ccc3F)[C@@H](N)C1)C2 — concentration at 168 h (healthy male human, plasma; oral, 12.5 mg single, fasted, geometric mean): 10.8 nM
CC1=C(/C=C/C(C)=C/C=C/C(C)=C/C(=O)Nc2ccc(O)cc2)C(C)(C)CCC1 — Km (substrate, item: 4'-oxo metabolite formation; human liver microsomes; 3 h, pH 7.4): 9.3 ± 3.2 µM
O=c1c(O)c(-c2ccc(O)cc2)oc2cc(OS(=O)(=O)O)cc(O)c12 — MRT (FVB mice, male, Bcrp1^−/−, plasma; oral, 10 mg/kg of kaempferol): 2.62 ± 0.133 h
Cc1cc(=O)n(-c2ccccc2)n1C — EC20 (cytochrome c release, ELISA; BALB/cByJ female mouse liver mitochondria; 30 min; relative to: alamethicin maximal release): > 400 µM
CC(C)C[C@H](NC(=O)[C@H](Cc1ccc(O)cc1)NC(=O)[C@H](CC(N)=O)NC(=O)[C@H](CO)NC(=O)CNC(=O)[C@H](Cc1ccc(O)cc1)NC(=O)[C@H](CC(=O)O)NC(=O)CNC(=O)[C@H](Cc1ccc(O)cc1)NC(=O)[C@H](Cc1ccccc1)NC(=O)[C@@H]1CCCN1C(=O)[C@H](Cc1ccccc1)NC(=O)[C@H](CCC(=O)O)NC(=O)[C@H](CCCNC(=N)N)NC(=O)[C@H](Cc1c[nH]cn1)NC(=O)[C@H](CO)NC(=O)[C@H](Cc1c[nH]cn1)NC(=O)[C@H](Cc1c[nH]cn1)NC(=O)[C@H](CCCCN)NC(=O)[C@H](CCC(=O)O)NC(=O)[C@H](Cc1c[nH]cn1)NC(=O)[C@H](Cc1ccccc1)NC(=O)[C@H](CCCCN)NC(=O)[C@H](CCCNC(=N)N)NC(=O)[C@H](CCCNC(=N)N)NC(=O)[C@H](Cc1ccc(O)cc1)NC(=O)CNC(=O)[C@H](Cc1c[nH]cn1)NC(=O)[C@H](Cc1c[nH]cn1)NC(=O)[C@H](CCCNC(=N)N)NC(=O)[C@H](CCCCN)NC(=O)[C@H](CCC(=O)O)NC(=O)[C@H](Cc1c[nH]cn1)NC(=O)[C@H](CO)NC(=O)[C@@H](N)CC(=O)O)C(=O)N[C@@H](Cc1ccc(O)cc1)C(=O)N[C@@H](CC(=O)O)C(=O)N[C@@H](CC(N)=O)C(=O)O — degradation (PAGE band density; whole saliva supernatant G1, diluted 1:10; 100 µg/mL, 48 h, 37 °C): 77.5%
NC(=O)CC[C@@H]1NC(=O)[C@H](Cc2ccccc2)NC(=O)[C@H](Cc2ccc(O)cc2)NC(=O)CCSSC[C@@H](C(=O)N2CCC[C@H]2C(=O)N[C@H](CCCN=C(N)N)C(=O)NCC(N)=O)NC(=O)[C@H](CC(N)=O)NC1=O — processed sample stability (UPLC-MS/MS; processed plasma extract; 3.05 pg/mL, 48 h, 10 °C, autosampler): 95.1%
CCCCCCCCCCCCCCC[C@H](O)[C@@H](N)CO — AUC (human, phase I, plasma; intravenous, 120 mg/m^2, day 1, monotherapy): 21.2 µM·h
O=C(CC1Cc2ccccc2C1)N[C@H](CN1CCCC1)[C@H](O)c1ccc(OC(F)(F)F)cc1 — Vd (CD-1 mouse, plasma; intravenous): 7.55 L/kg
CNS(=O)(=O)Cc1ccc2[nH]cc(CCN(C)C)c2c1 — EC20 (mitochondrial swelling; BALB/cByJ female mouse liver mitochondria; 30 min, with: succinate + rotenone; relative to: CaCl2 maximal swelling): > 400 µM
Cn1c(-c2ccc(C(N)=O)cc2F)nnc1C(C)(C)Oc1c(F)cc(Cl)cc1F — Ctrough (young non-Japanese healthy subjects, plasma; oral, 0.2 mg once daily, 3 mg loading day 1, median, last dosing day): 0.557 ng/mL
Nc1ccn([C@@H]2O[C@H](CO)[C@@H](O)C2(F)F)c(=O)n1 — clearance (male BALB/c mouse, plasma; intravenous, 38 µmol/kg): 0.233 mL/min
N#Cc1cn(C(=O)C2CC2)c2cccnc12 — half-life (chemical stability; aqueous buffer; pH 7.4): > 4 h
CO[C@@H]1[C@@H](OC(N)=O)[C@@H](O)[C@H](Oc2ccc3c(O)c(NC(=O)c4ccc(O)c(CC=C(C)C)c4)c(=O)oc3c2C)OC1(C)C — EC20 (cytochrome c release, ELISA; BALB/cByJ female mouse liver mitochondria; 30 min; relative to: alamethicin maximal release): > 400 µM
CCCCC1(CCCC)CN(c2ccccc2)c2cc(SC)c(OCC(=O)N[C@@H](C(=O)NCC(=O)O)c3ccccc3)cc2S(=O)(=O)C1 — AUC(0-t) (human, plasma; oral, 20 mg once daily, day 1, geometric mean): 3.02 ng·h/mL
COc1ccc2nc([S@@+]([O-])Cc3ncc(C)c(OC)c3C)[nH]c2c1 — adverse events (human healthy; 40 mg, nervous system disorders): 0%
O=S(=O)(O)Oc1c(O)cccc1O — mean concentration (human, fasted baseline, cerebrospinal fluid): 2.2 nM
CS(=O)(=O)n1cc2c(n1)CN([C@H]1CO[C@H](c3cc(F)ccc3F)[C@@H](N)C1)C2 — Ctrough (healthy Japanese men, plasma; oral, 50 mg once weekly, day 1): 27.1 nM
CCc1oc2ccc(F)cc2c1C(=O)c1cc(Br)c(O)c(Br)c1 — microsomal CLint (metabolic stability; Sprague-Dawley rat, liver microsomes; 1 µM, pH 7.4): 143 µL/min/mg
